Measurements collected from several papers.
Lines come from different studies, so protocols differ.

Structure (SMILES) | assay | test system | setting | endpoint | value
CNC(=O)c1ccc(-c2cnc3ncc(Cc4ccc5ncccc5c4)n3n2)cc1F | measured: Pyrexia | cancer patients | oral, 600 mg twice daily, all expansion cohorts, grade 3-4 | patients with adverse event | 3%
COc1ccc([C@@H](O)c2cc(-c3ncnc4cc(N5CCOCC5)ccc34)c(F)cc2Cl)nn1 | measured: Anemia | locally advanced rectal cancer patients | dose not given, all dose groups, added: capecitabine plus radiotherapy | patients with TEAE | 32%
FC(F)(F)c1ccc(CNc2ccc(Cc3c[nH]c4ncc(Cl)cc34)cn2)cn1 | measured: blood alkaline phosphatase increased | advanced solid tumour patients | oral, 1000 mg/day, all grades, all cohorts | patients with treatment-related adverse event | 6%
CNC(=O)c1cc(Oc2ccc(NC(=O)Nc3cc(C(C)(C)C)nn3-c3ccc4ncccc4c3)c(F)c2)ccn1 |  | patients | oral, dose not given, cycles 1 and 2, Low AUC subgroup | patients with nervous system disorders | 20%
COc1cc2nccc(Oc3ccc(NC(=O)c4cc5c(n(-c6ccccc6)c4=O)CCCC5=O)nc3)c2cc1OC |  | patients with relapsed/refractory AML | oral, 6 mg once daily | patients with drug-related serious TEAEs | 0%
COc1cc(Nc2ncc3c(n2)-c2ccc(Cl)cc2C(c2c(F)cccc2OC)=NC3)ccc1C(=O)O | measured: increased AST, grade 2 | cancer patients, phase 1/2 | oral, dose not given, added: pembrolizumab | patients with adverse event | 4%
C[C@@H](Nc1cc(F)cc(F)c1)c1cc(C(=O)N(C)C)cc2c(=O)cc(N3CCOCC3)oc12 | measured: Fatigue | advanced solid tumour patients | oral, dose not given, dose finding | patients discontinuing for AE | 0%
NC(=O)N1c2ccccc2C=Cc2ccccc21 |  | male patients | oral, dose not given, on-treatment adverse events | patients with Pruritus | 7%
Cc1cc(NC2CCN(C(=O)OC3CCN(C(=O)/C=C/CN(C)C)C3)CC2)n2ncc(C(C)C)c2n1 (centres unmarked) | Phase I dose escalation CTCAE v4.0, measured: urinary tract infection | patients with advanced solid tumours | dose not given, Total dosing any grade | patients with adverse event | 6%
C=CC(=O)Nc1cc(Nc2nccc(-c3cn(C)c4ccccc34)n2)c(OC)cc1N(C)CCN(C)C | measured: treatment-related grade ≥3 Anemia | EGFR-mutant MET-altered NSCLC | oral, dose not given | patients with adverse events | 0%
Cc1cc(-c2nnc(N)nc2-c2ccc(F)cc2)cc(Cl)n1 | measured: Rash | IO-naive colorectal cancer patients | oral, dose not given, treatment-related, grade 2 | patients with immune-mediated AE | 0%
CCOc1c([C@H](C)n2nc(C)c3c(N)ncnc32)cc(Cl)c(F)c1[C@@H]1CNC(=O)C1 | measured: QTcF ≤450 ms | previously treated B-cell malignancy | oral, 5 mg once daily, overall population | patients | 100%
C=CC(=O)NC1CCN(c2ncc3ncnc(Nc4ccc(Oc5ccc6c(c5)ncn6C)c(C)c4)c3n2)CC1 |  | male patients | oral, dose not given, on-treatment adverse events | patients with Nasopharyngitis | 6%
O=C(Nc1nc2cccc(-c3ccc(CN4CCS(=O)(=O)CC4)cc3)n2n1)C1CC1 |  | rheumatoid arthritis patients | oral, 100 mg twice daily, 4 weeks, regardless of relatedness | patients with non-cardiac chest pain | 0%

Some of these lines once more:
Structure (SMILES) | assay | test system | setting | endpoint | value
CCOc1c([C@H](C)n2nc(C)c3c(N)ncnc32)cc(Cl)c(F)c1[C@@H]1CNC(=O)C1 | measured: QTcF ≤450 ms | previously treated B-cell malignancy | oral, 5 mg once daily, overall population | patients | 100%
C=CC(=O)NC1CCN(c2ncc3ncnc(Nc4ccc(Oc5ccc6c(c5)ncn6C)c(C)c4)c3n2)CC1 |  | male patients | oral, dose not given, on-treatment adverse events | patients with Nasopharyngitis | 6%
